Experimental data gathered from unrelated publications.
A part holds a random share of what one study measured.

Block 1
Target: Prothrombin, mature alpha-thrombin (F2, Homo sapiens, UniProt P00734)
Technique: aptamer microarray, sandwich
Molecule type: DNA with 2'F-ANA
Matrix: in vitro
Concentration: 200 nM
Notes: whole 15-mer aptamer, many near background
Together with: Cy3 exosite-II aptamer, 400 nM
Reading: higher = stronger binding
Sequence: GGTTGGTGTGGTTGG
`2'F-ANA at 1 3 9 11 12 13 14 15` — result for “mean fluorescence intensity”: 99.7 a.u.
For `2'F-ANA at 1 2 5 6 8 12 15`, “mean fluorescence intensity” read 126 a.u.
`2'F-ANA at 1 3 4 6 11 12 14` — result for “mean fluorescence intensity”: 72.5 a.u.
Under “mean fluorescence intensity”, `2'F-ANA at 1 3 11 12 13 14 15` is recorded as 116 a.u.
`2'F-ANA at 2 3 4 6 7 8 9 13 14 15` — result for “mean fluorescence intensity”: 206 a.u.
Under “mean fluorescence intensity”, `2'F-ANA at 3 5 6 10 14` is recorded as 49.7 a.u.
Under “mean fluorescence intensity”, `2'F-ANA at 2 5 8 9 14` is recorded as 52.9 a.u.
For `2'F-ANA at 1 3 4 5 6 7 9 10 11 12 13`, “mean fluorescence intensity” read 53.3 a.u.
`2'F-ANA at 1 3 4 5 7 8 10 13 14`: “mean fluorescence intensity” 44.9 a.u.

Block 2
Substance: PhoQ, residues 284 288 289 292 302 303 QWGLFV
Technique: Sort-seq
Item: YFP reporter
Matrix: E. coli
Notes: PhoQ-PhoP variant library
Together with: 10 µM Mg2+
Reference: high Mg2+ state
Reading: higher = stronger signaling
The fold induction was 0.977 (PhoP, residues 12 14 15 18 19 ICWRQ (Escherichia coli, UniProt P23836)).
It gave 8.99 for fold induction (PhoP, residues 12 14 15 18 19 VHTVL (Escherichia coli, UniProt P23836)).
The fold induction was 1.36 (PhoP, residues 12 14 15 18 19 TQCLL (Escherichia coli, UniProt P23836)).

Block 3
Target: RING finger protein unkempt homolog, zinc fingers 1-6, GST-SBP tag (UNK, Homo sapiens, UniProt Q9C0B0, residues 30-357)
Technique: RNA Bind-n-Seq
Molecule type: RNA
Matrix: in vitro
Concentration: not given
Notes: RNA with constant flanks, human and mouse sites, ends assumed
Reference: input RNA pool
Reading: higher = stronger binding
Residues (chain): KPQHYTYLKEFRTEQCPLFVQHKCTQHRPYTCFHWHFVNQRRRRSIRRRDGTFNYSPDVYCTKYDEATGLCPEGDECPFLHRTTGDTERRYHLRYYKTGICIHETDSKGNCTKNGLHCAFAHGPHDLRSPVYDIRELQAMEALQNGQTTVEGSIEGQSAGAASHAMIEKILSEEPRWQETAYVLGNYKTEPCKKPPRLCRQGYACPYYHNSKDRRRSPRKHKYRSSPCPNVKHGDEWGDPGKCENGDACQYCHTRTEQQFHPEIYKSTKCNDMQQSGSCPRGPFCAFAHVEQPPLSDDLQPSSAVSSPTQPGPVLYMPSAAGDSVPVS
`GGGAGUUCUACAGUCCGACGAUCCUCAACCAUCCAAAUGUAAUAAAAUAUUAUGCAUCAUUCAUUGAAGAUAAUGAACUAAACAUAGUUUUGGAACUAGCAGAUGCUGGCGACCUAUCCAGAAUGAUCAAGCAUUUUAAGAAGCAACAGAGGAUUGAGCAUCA` gave a bound/input enrichment of 0.18 ratio.
With `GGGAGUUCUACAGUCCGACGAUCAAUGAAUAUGUUGGAUUCAGUAAUGCAACGUUUCAGUCUGAACGAGAAAGUGGAGAUCGAAAUUUUGCAAUAGGAUAUUACUUAAAAGAAAAGAAGUGUUUUCCAGAAGGCACAGACAUGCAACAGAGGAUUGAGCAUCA` the bound/input enrichment was 1.52 ratio.
For `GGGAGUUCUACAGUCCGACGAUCCUGCUUCCUACCAUUGGAAGUCCUUUCUGGCUUUUUGUGGAGUACUUUUUGCUGUAUGUAACUUUUAAGUAAUGUUUUGUUGGACUUUCUUCUGAGUCCUCUGAUUAAUAAUAUGUUUUCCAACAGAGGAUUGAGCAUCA`, the bound/input enrichment was 0.375 ratio.
`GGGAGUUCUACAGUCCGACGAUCUGGGGUGGGGACUGGCCCGAGGCCCUGGCUAUCAGUCAGCGGUGGCAGCAGCAGGACAAGGCGGCCAACAAGGAGCUCACCUUCCUGCUAUUCUCCUGCCCGCACCGCCUGCGGGAGCACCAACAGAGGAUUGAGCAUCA` has a bound/input enrichment of 0.126 ratio.
`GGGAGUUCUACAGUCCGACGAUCAGAGCAGGUGCAUGCCGAUGGGUCAUGCAGCCCUCAGGAAGAGACGGCCAUGACAGAGCAUCAGAUGGAAGGCCCCCCUGAGGAAGCAGAGAGUCUUCAUGAGGAGGAAGAAACUCUUGCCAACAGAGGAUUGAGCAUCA` gave a bound/input enrichment of 0.0994 ratio.
With `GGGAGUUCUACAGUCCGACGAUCGAUCCUAUGGUUCGGAGUUUUGCUGUUCGGUGCUUAGAAAAAUAUUUAACAGAUGACAAACUUUCUCAGUACCUCAUUCAACUUGUACAGGUCUUAAAAUAUGAACAGUAUUUGGAUAACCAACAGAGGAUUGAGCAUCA` the bound/input enrichment was 0.928 ratio.
The bound/input enrichment of `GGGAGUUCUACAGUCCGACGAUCCACCUUUGGCUCCAAAGGGAUACUCCUAUCACACACAUCAGUUUUCAUCCCAAGAGACCGAUGCACAUCCUUCUCCAUGAUGCCUACAUGUUCUGCAUCAUUGACAAGUCAUUGCCCCUUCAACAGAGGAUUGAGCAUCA` is reported as 0.231 ratio.
`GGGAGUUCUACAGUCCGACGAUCUUUCAGCAACUGGUCAAUUUUUCAGAAGGAGGACCGGGCUCUAAUUCCACUGGCAGUGAAGUAGCAUCAAUGUCCUCUCAACUUCCAGAUACACCUAACAGCAUGGUAGCCAGUCCUAUUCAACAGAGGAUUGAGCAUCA` gave a bound/input enrichment of 0.172 ratio.
`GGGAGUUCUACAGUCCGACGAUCCAGUAACCCUGCAAGAUAUAAAGGAAGAGAAAAUAUGUUGUAUUAUGAUACUAUUGAAGAUGCCCUUGGUGGGGUACAAGAGGCUCAUUUUGAUGGACUUAUCUUUGUUCAUUCUGGAAUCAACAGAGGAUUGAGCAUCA` gave a bound/input enrichment of 0.269 ratio.

Block 4
Target: Histone acetyltransferase KAT6A, both winged helices, GST fusion (KAT6A, Homo sapiens, UniProt Q92794, residues 1-181)
Technique: protein binding microarray
Molecule type: double-stranded DNA, one strand shown
Matrix: in vitro
Concentration: not given
Notes: 8-mer, flanks averaged, mean of 2 arrays, mostly near background
Reference: not given
Reading: higher = stronger binding
Construct (chain): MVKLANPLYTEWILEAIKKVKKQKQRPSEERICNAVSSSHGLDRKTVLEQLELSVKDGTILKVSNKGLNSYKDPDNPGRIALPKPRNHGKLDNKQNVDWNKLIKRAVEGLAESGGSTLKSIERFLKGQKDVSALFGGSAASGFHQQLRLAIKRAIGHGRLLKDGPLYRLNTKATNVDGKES
`GTGGCCTA` has an E-score of -0.0973.
`AAAGTAAA` has an E-score of -0.145.
The E-score of `CGATCCGA` is reported as 0.0597.
For `ATGACGAG`, the E-score was -0.00245.
For `TGTCCGAA`, the E-score was 0.0091.
With `ATTTCCCA` the E-score was -0.233.
`GTCTCGGA` gave an E-score of 0.0717.
`AGGGACGC` has an E-score of -0.0245.

Excerpt of the above (block 3):
`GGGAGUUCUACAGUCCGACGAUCAGAGCAGGUGCAUGCCGAUGGGUCAUGCAGCCCUCAGGAAGAGACGGCCAUGACAGAGCAUCAGAUGGAAGGCCCCCCUGAGGAAGCAGAGAGUCUUCAUGAGGAGGAAGAAACUCUUGCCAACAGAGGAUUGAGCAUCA` gave a bound/input enrichment of 0.0994 ratio.
`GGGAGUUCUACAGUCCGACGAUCUGGGGUGGGGACUGGCCCGAGGCCCUGGCUAUCAGUCAGCGGUGGCAGCAGCAGGACAAGGCGGCCAACAAGGAGCUCACCUUCCUGCUAUUCUCCUGCCCGCACCGCCUGCGGGAGCACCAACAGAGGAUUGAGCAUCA` has a bound/input enrichment of 0.126 ratio.
With `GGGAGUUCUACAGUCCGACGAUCAAUGAAUAUGUUGGAUUCAGUAAUGCAACGUUUCAGUCUGAACGAGAAAGUGGAGAUCGAAAUUUUGCAAUAGGAUAUUACUUAAAAGAAAAGAAGUGUUUUCCAGAAGGCACAGACAUGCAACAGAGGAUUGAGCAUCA` the bound/input enrichment was 1.52 ratio.
